Assay results collected from several papers.
Each line is one published result; not all experiments were run side by side. Numbers after ± are the reported error.

Compound	cell line	assay	test system	conditions	scale	quantity	result
CC(C)c1cnn2c(NCc3ccccc3)cc(N[C@@H](CO)[C@H](O)CO)nc12	HCT-116 resistant to compound	cell growth, sulforhodamine B		336 h, 2 weeks selection	relative to: resistant over parental HCT-116	resistance factor	10 fold
COc1ccccc1/C=C/[N+](=O)[O-]	OCI-AML2	cell growth or viability		72 h		CC50	2.35 µM
Cc1cc(O)cc(-c2nc(Nc3cc(C(F)(F)F)cc(C(F)(F)F)c3)ncc2-c2ccnc(Cl)c2)c1	LS174T			10 µM, 72 h	relative to: untreated cells	viability decrease	> 50%
CCCCCCCCCCOCc1cn(CC2=CC[C@@H]3C(C(=O)OC)=CO[C@@H](OC(C)=O)[C@H]23)nn1	SK-N-SH	neuroprotection, MTT		0.6 µM, 24 h, with: 250 µM H2O2		viability	61.2 ± 0.8%
CC[C@H](C)[C@@H](OC(=O)[C@@H](NC(=O)[C@H](C)OCc1ccccc1)C(C)C)C(=O)N[C@@H](C(=O)O[C@@H](C)C(=O)N[C@H](C(=O)O[C@@H](C(=O)N[C@@H](C(=O)OC(C)(C)C)C(C)C)[C@@H](C)CC)C(C)C)C(C)C	P388	cell growth	DMSO			ED50	> 10 µg/mL
COC(=O)C1=CO[C@@H](OC(C)=O)[C@@H]2C(Cn3cc(CCO[Si](C)(C)C(C)(C)C)nn3)=CC[C@H]12	SK-N-SH	neuroprotection, MTT		0.075 µM, 24 h, with: 250 µM H2O2		viability	74.2 ± 0.4%
CCCCCCCCC1(CCCCCCCC)c2cc(-c3cc4[n+]5c(c3)-c3cccc[n+]3[Ir-3]536([c]5c(c(C)cc(C)c5-c5cccc[n+]53)-c3cccc[n+]36)[n+]3ccccc3-4)ccc2-c2ccc(-c3cc4[n+]5c(c3)-c3cccc[n+]3[Ir-3]536([c]5c(c(C)cc(C)c5-c5cccc[n+]53)-c3cccc[n+]36)[n+]3ccccc3-4)cc21.F[P-](F)(F)(F)(F)F.F[P-](F)(F)(F)(F)F.F[P-](F)(F)(F)(F)F.F[P-](F)(F)(F)(F)F	SK-MEL-28			red light 100 J/cm2	relative to: dark EC50 over red-light EC50	phototherapeutic index	1
C=CCCCCCCCCCOCc1cn(CC2=CC[C@@H]3C(C(=O)OC)=CO[C@@H](OC(C)=O)[C@H]23)nn1	SK-N-SH	neuroprotection, MTT		0.075 µM, 24 h, with: 250 µM H2O2		viability	57.1 ± 0.3%
CC/C=C\C/C=C\C/C=C\C/C=C\C/C=C\C/C=C\CCC(=O)Nc1ccn(C2OC(CO)C(O)C2(F)F)c(=O)n1 (stereo not drawn)	SF-268	NCI60 screen				CC50	42.3 µM
COC(=O)C[C@](O)(CCCC(C)(C)OC(C)=O)C(=O)O[C@@H]1C(OC)=C[C@]23CCCN2CCc2cc4c(cc2[C@H]13)OCO4	pancreatic cancer cells	western blot		1 µM, 48 h		BCL-2 and BCL-XL protein level	no effect
CN1C(=O)C2(Cc3ccc(CC45SSC(CO)(C(=O)N4C)N(C)C5=O)cc3)SSC1(CO)C(=O)N2C (racemic)	MCF7	microarray		600 nM, of 43 deferoxamine-induced genes ≥4-fold upregulated ≥2-fold, with: deferoxamine		number of upregulated genes	2
COC(=O)C1=CO[C@@H](OC(C)=O)[C@@H]2C(Cn3cc(CN4C(=O)c5ccccc5C4=O)nn3)=CC[C@H]12	SK-N-SH	neuroprotection, MTT		0.3 µM, 24 h, with: 250 µM H2O2		viability	56.8 ± 1.3%
CC(C)CC(O)(CC(C)C)c1cn(C(=O)N2CCCC2)nn1	mouse T-cells	SILAC proteomics, item: PAIP2B		1 nM, 6 h, unit not given	relative to: DMSO	protein level	0.92 ± 0.07
CCCCCCCCCCOCc1cn(CC2=CC[C@@H]3C(C(=O)OC)=CO[C@@H](O)[C@H]23)nn1	SK-N-SH	neuroprotection, MTT		0.3 µM, 24 h, with: 250 µM H2O2		viability	60.8 ± 0.6%
[Cl][Ag].[Se]=c1n(C2CCCCC2)ccn1C1CCCCC1	LoVo-OXP colon cancer cells	MTT			relative to: LoVo-OXP over LoVo IC50	resistance factor	0.9
